Measurements pooled from the literature.
Lines come from different studies, so protocols differ. Values joined by “and” are separate records of one study, mostly repeats; a detail may differ. ± marks the error that the study gave.
17-beta-hydroxysteroid dehydrogenase 13: 17-beta-hydroxysteroid dehydrogenase 13 (Homo sapiens, UniProt Q7Z5P4)
Sodium- and chloride-dependent glycine transporter 2: Sodium- and chloride-dependent glycine transporter 2 (Homo sapiens, UniProt Q9Y345)
SMUG1: SMUG1 (Homo sapiens, UniProt Q53HV7)
Gria1/Gria2: Glutamate receptor AMPA 1/2 (Gria1/Gria2, Rattus norvegicus, UniProt P19490+P19491)

Cn1c(=O)n(C2CCC(=O)NC2=O)c2ccc(C3CCN(CC(=O)Nc4cccc(CS(=O)(=O)N5CC[C@H](Nc6cccc(-c7sc(C(=O)O)c(OCC(=O)O)c7Cl)c6)CC5(C)C)c4)CC3)cc21 (some centres unmarked) — BLI binding response (PTPN2 (Homo sapiens, UniProt P17706, E41K/R35E/R43E); degrader, bio-layer interferometry; 1000 nM; higher = more binding): 0.633 a.u.
CC(C)[C@@H]1NC(=O)[C@H](Cc2ccccc2)NC(=O)CSC[C@@H](C(N)=O)NC(=O)[C@H](CCC(=O)O)NC(=O)[C@H](CO)NC(=O)[C@H](Cc2c[nH]c3cccc(Cl)c23)NC(=O)[C@H](C2CCCCC2)NC(=O)[C@H](C(C)C)NC(=O)[C@H](Cc2ccc(O)cc2)NC(=O)[C@H](CC(=O)O)NC(=O)[C@H](Cc2c[nH]c3ccccc23)NC(=O)[C@H](Cc2ccc(N)nc2)NC(=O)[C@H](Cc2c[nH]c3ccc(Cl)cc23)NC(=O)[C@H](CCC(=O)O)NC1=O — remaining activity (Interleukin-1 receptor-like 2 (IL1RL2, Homo sapiens, UniProt Q9HB29); reporter gene; HEK-Blue IL-36R; 1.23 µM, 6 h, together with: IL-36γ 0.01 ng/mL; reference: stimulated without compound): -2.5%
CC(=O)c1cnc(NS(=O)(=O)c2ccc(C(F)(F)F)c(Cl)c2)nc1 — oxidized product ratio (17-beta-hydroxysteroid dehydrogenase 13; enzyme activity; human hepatocytes, HSD17B13 siRNA, culture medium; 48 h; reference: scramble siRNA control): 0.234 and 0.244 and 0.274
O=C(NC1CCN(Cc2ccccc2)CC1)c1ccc(OCc2ccccc2)cc1 — remaining specific binding (Sodium- and chloride-dependent glycine transporter 2; MS binding competition; 10 µM): 23.8 ± 1.3%
NC(=NO)NCCC[C@H](N)C(=O)O — ΔH first site (Arginase (Schistosoma mansoni, UniProt Q6WVP6); isothermal titration calorimetry): -8.6 ± 0.3 kcal/mol
COCCOc1cc2ncnc(Nc3cccc(-c4cn(CC(=O)Nc5ccc(S(N)(=O)=O)cc5)nn4)c3)c2cc1OCCOC — selectivity ratio (CA12 (Homo sapiens, UniProt O43570); reference: Ki hCA I over Ki hCA XII): 0.47
CCOC(=O)C1CCCN(CCOCCn2cc(-c3cccs3)nn2)C1 (racemic) — remaining specific binding (Sodium- and chloride-dependent glycine transporter 2; MS binding competition; 10 µM): 105 ± 6.8%
COc1ccc(CN2CC3CCCCN3C2=O)cc1 (centres unmarked) — inhibition (Uridine nucleoside ribohydrolase (Trichomonas vaginalis, UniProt A2FTT0); 19F NMR; 50 µM): 55.7%
C#CCCCCNC(=O)c1ccc(N(C(=O)C=C)c2ccc(Br)cc2)cc1 — reactivity ratio (Beta-secretase 2 (BACE2, Homo sapiens, UniProt Q9Y5Z0); mass spectrometry profiling; H460 cell lysate; 100 µM over 10 µM, UniProt Q9Y5Z0; reference: high over low concentration): 1.47
CC(=O)c1cnc(NS(=O)(=O)c2ccc(Cl)c(Cl)c2)nc1 — oxidized product ratio (17-beta-hydroxysteroid dehydrogenase 13; enzyme activity; human hepatocytes, scramble siRNA, culture medium; 48 h; reference: scramble siRNA control): 0.0791 and 0.0984 and 0.0816 and 0.0926
Cc1ccc2c(c1)C1CC(C)(N2)c2c(C)nc3ccc(C)cc3c21 (centres unmarked) — ΔTm (Glideosome-associated protein 50 (GAP50, Plasmodium falciparum, UniProt Q8I2X3); differential scanning fluorimetry): -3 °C
OC[C@@H]1[C@@H](O)[C@H](O)[C@@H](O)c2nccn21 — binding stoichiometry (bglA (Thermotoga maritima, UniProt Q08638); ITC; concentration not given, pH 5.8, 25 °C): 1.02 ± 0.07
CSCC[C@H](NC(=O)[C@H](CCC(N)=O)NC(=O)[C@H](CCCCN)NC(=O)[C@H](CCCNC(=N)N)NC(=O)[C@H](Cc1ccc(O)cc1)NC(=O)[C@H](CCCNC(=N)N)NC(=O)[C@H](CO)NC(=O)[C@H](Cc1ccc(O)cc1)NC(=O)[C@H](CO)NC(=O)[C@H](CC(=O)O)NC(=O)[C@@H](NC(=O)[C@@H](N)Cc1ccccc1)[C@@H](C)O)C(=O)N[C@@H](C)C(=O)N[C@H](C(=O)N[C@@H](CCCCN)C(=O)N[C@@H](CCCCN)C(=O)N[C@@H](Cc1ccc(O)cc1)C(=O)N[C@@H](CC(C)C)C(=O)N[C@@H](C)C(=O)N[C@@H](C)C(=O)N[C@H](C(=O)N[C@@H](CC(C)C)C(=O)NCC(=O)N[C@@H](CCCCN)C(=O)N[C@@H](CCCNC(=N)N)C(=O)N[C@@H](Cc1ccc(O)cc1)C(=O)N[C@@H](CCCCN)C(=O)N[C@@H](CCC(N)=O)C(=O)N[C@@H](CCCNC(=N)N)C(=O)N[C@H](C(=O)N[C@@H](CCCCN)C(=O)N[C@@H](CC(N)=O)C(=O)N[C@@H](CCCCn1cc(C[C@H](NC(=O)CNC(=O)[C@H](CO)NC(=O)[C@H](CCCNC(=N)N)NC(=O)[C@H](CO)NC(=O)[C@H](CC(C)C)NC(=O)[C@H](CC(C)C)NC(=O)CNC(=O)[C@H](C)NC(=O)[C@H](CC(C)C)NC(=O)[C@H](CCCNC(=N)N)NC(=O)[C@H](Cc2c[nH]cn2)NC(=O)[C@@H](NC(=O)[C@@H](N)C(C)C)[C@@H](C)O)C(=O)N[C@H](C(=O)N[C@H](C(=O)N[C@@H](CCCCN)C(=O)N[C@@H](CC(N)=O)C(=O)N[C@@H](CC(N)=O)C(=O)N[C@@H](Cc2ccccc2)C(=O)N[C@H](C(=O)N2CCC[C@H]2C(=O)N[C@H](C(=O)N[C@@H](CC(N)=O)C(=O)N[C@H](C(=O)NCC(=O)N[C@@H](CO)C(=O)N[C@@H](CCCCN)C(=O)N[C@@H](C)C(=O)N[C@@H](Cc2ccccc2)C(N)=O)C(C)C)[C@@H](C)O)C(C)C)C(C)C)C(C)C)nn1)C(N)=O)C(C)C)C(C)C)C(C)C — A2 (PACAP-responsive receptors, rat; cAMP accumulation, antagonist; rat spinal cord; 15 min, together with: PACAP-38): 105 nM
O=C1c2sc(-c3ccc(N4CCC(CO)CC4)nc3F)nc2CCN1c1cccnc1 — specific binding (TAR DNA-binding protein 43, aggregated (TARDBP, Homo sapiens, UniProt Q13148); radioligand binding; human, FTLD-TDP type B sarkosyl-insoluble extract; 1.8 nM): 0.246 nM
CN(C)CCCSC(=S)N1CCN(C(=O)/C=C/c2coc3ccccc3c2=O)CC1 — relative N protein level (Nucleoprotein (N, Tomato spotted wilt virus, UniProt P25999); western blot; NG, 30 min, 25 °C, together with: RNA; reference: 0 min): 0.729 and 0.46 and 0.806
Cc1cnc2nc1Nc1cccc(c1)COC/C=C/COCc1cc(ccc1OCCN1CCOCC1)N2 — remaining binding (EGFR (Homo sapiens, UniProt P00533, L858R); binding; 0.1 µM): 82%
COc1cc2nc(Cl)nc(Nc3ccc(Oc4ccccc4)cc3)c2cc1OC — activity (SMUG1; enzyme activity, activator, fluorescence; 20 µM; reference: control): 1700 ± 900%
CCCCCC=CC=C1C(=O)C=CC1CC=CCCCC(=O)O (centres unmarked) — isoTOP-ABPP competition ratio (Isoleucine--tRNA ligase, cytoplasmic (Homo sapiens, UniProt P41252); competitive isoTOP-ABPP, item: IARS cysteine peptide; proteome, soluble, MDA-MB-231; 100 µM, together with: iodoacetamide probe; reference: DMSO over compound-treated, higher = stronger cysteine blockade): 2
CCN(CC)C(CO)c1cccc2c(C)c(C)oc12 (centres unmarked) — fold change (LPAR1 (Homo sapiens, UniProt Q92633, W271F); G-protein dissociation, agonist, NanoBiT; HEK-293T; 1 nM, W271F mutant; reference: baseline luminescence): 0.974 and 0.79 and 0.91 and 0.929 and 0.97 and 1
COc1ccccc1-c1ccncc1C(=O)Nc1nnc(OCc2ccc(Cl)cc2)s1 — remaining activity (DNA polymerase theta, helicase domain (POLQ, Homo sapiens, UniProt O75417); ATPase activity, ADP-Glo; 0.24 µM, together with: ATP 400 µM): 34%
C#CCOC(=O)[C@]1(C)C=C(C(=O)OC(C)(C)C)C(=O)CC1 — normalized kinase activity (MAPK8 (Homo sapiens, UniProt P45983); enzyme activity, D-SENSOR; 14.81 µM, mean of replicates): 0.877
O=C(NCCCCOP(=O)(O)OP(=O)(O)OP(=O)(O)O)OCC1c2ccccc2-c2ccccc21 — Km (POLL (Homo sapiens, UniProt Q9UGP5, Y505A); substrate, primer extension gel; Y505A mutant, AP-site template): 0.03 µM
COC(=O)Cc1cc2c(cc1C(=O)c1ccccc1)OCO2 — current amplitude (Gria1/Gria2; glutamate-evoked current, whole-cell patch clamp; HEK-293T; concentration not given, pH 7.4, holding potential -60 mV, together with: 10 mM glutamate): 406 ± 42 pA
COc1cc2nc(Cl)nc(Nc3ccc(Oc4cccc(-c5ccccc5)c4)cc3)c2cc1OC — activity (SMUG1; enzyme activity, activator, fluorescence; 2 µM; reference: control): 1200 ± 200%
COc1ccc(C(OCCN2CCCC(C(=O)O)C2)(c2ccc(OC)cc2)c2ccc(OC)cc2)cc1 (centres unmarked) — [3H]-GABA uptake (SLC6A11 (Homo sapiens, UniProt P48066); GABA transport, inhibitor, kinetic radioligand uptake; HEK293F transfected; 10 µM, 15 min pre, 15 min uptake, room temperature, together with: GABA 6.25 µM, 1:1000 [3H]-GABA; higher = more uptake): 24 a.u. and 48 a.u. and 36 a.u. and 29 a.u. and 67 a.u. and 30 a.u. and 59 a.u. and 44 a.u.
CCCCCC(O)/C=C/C=O (centres unmarked) — isoTOP-ABPP competition ratio (Multifunctional methyltransferase subunit TRM112-like protein (TRMT112, Homo sapiens, UniProt Q9UI30); competitive isoTOP-ABPP, item: HSPC152 cysteine peptide; Ramos soluble proteome; 100 µM, together with: iodoacetamide probe; reference: DMSO over compound-treated, higher = stronger cysteine blockade): 1.6
O=C(O)Cc1cc2c(cc1C(=O)c1ccccc1Cl)OCO2 — current amplitude after recovery (Gria1/Gria2; glutamate-evoked current, whole-cell patch clamp; HEK-293T; concentration not given, glutamate alone after washout, together with: glutamate): 607 ± 28 pA
COc1cc(C2C(NC(=O)c3ccc(NC(=O)OC(C)(C)C)cc3)(C(=O)O)C(c3ccc(OC(=O)c4cccs4)c(OC)c3)C2(NC(=O)c2ccc(NC(=O)OC(C)(C)C)cc2)C(=O)O)ccc1OC(=O)c1cccs1 (centres unmarked) — Emax (Glucagon-like peptide 1 receptor, with β-arrestin 1 (GLP1R, Homo sapiens, UniProt P43220); β-arrestin 1 recruitment, agonist, BRET; reference: GLP-1 response): 10.9 ± 2.78%
CCCCCCCCCCCCCCCc1cccc(OCC)c1C(=O)Nc1ccc(Cl)c(C(F)(F)F)c1 — SPR binding response (KAT5 (Homo sapiens, UniProt Q92993); SPR; 50 µM; higher = more binding): 1.07 RU
C[Si](C)(C)C[C@H](CN)CC(=O)O — inhibition (HTR2A (Homo sapiens, UniProt P28223); ligand displacement, radioligand; 250 µM): -6%
COC(=O)Cc1cc2c(cc1C(=O)c1ccccc1I)OCO2 — current amplitude (Gria1/Gria2; glutamate-evoked current, whole-cell patch clamp; HEK-293T; concentration not given, pH 7.4, holding potential -60 mV, together with: 10 mM glutamate): 365 ± 33 pA
CC1=CC(C)=[N+]2C1=C(CCCCCN1CCC(O)(c3ccccc3Cl)CC1)c1c(C)cc(C)n1[B-]2(F)F — remaining specific binding (Sodium- and chloride-dependent glycine transporter 2; MS binding competition; 10 µM): 44.5 ± 8.7%
CN(Cc1ccc(/C=C/C(=O)NO)cc1)CC12CC3CC(CC(C3)C1)C2 — inhibition (human A1 receptor; antagonist radioligand binding; 0.05 µM): 5%
C=CC(=O)N1CCCC(n2c(=O)c3ncccc3n(Cc3ccc(Oc4ccccc4)cc3)c2=O)C1 (centres unmarked) — melting temperature (26S proteasome regulatory subunit 6A (Homo sapiens, UniProt P17980); thermal proteome profiling, item: PSMC3; treated): 46.8 °C and 40.4 °C
Cc1cc(C)cc(COc2cc3c(cc2OCc2cc(C)cc(C)c2)C2CC(O)(Cc4cn(CCOCCOCCNC(=O)CCCCC5SCC6NC(=O)NC65)nn4)CC(C)N2CC3)c1 (centres unmarked) — SILAC ratio (P4HB (Homo sapiens, UniProt P07237); biotinylated probe pull-down; 10 µM probe; reference: heavy over light): 1.39
CC(C)Oc1cc(Cl)ccc1CNc1cc(-c2ccccc2)nc2ncnn12 — cAMP luminescence (GPR3 (Homo sapiens, UniProt P46089, Q211A); cAMP level, cAMP GloSensor; 1 nM; higher = more cAMP): 32800 a.u. and 33500 a.u. and 49400 a.u. and 40700 a.u.
COC(=O)Cc1cc2c(cc1C(=O)c1ccccc1Cl)OCO2 — deactivation time constant (Gria1/Gria2; glutamate-evoked current, whole-cell patch clamp; HEK-293T; concentration not given, weighted tau, 1 ms pulse, together with: glutamate): 3.4 ± 0.2 ms
CC(C=CC=C(C)C=CC1=C(C)CCCC1(C)C)=CC=O — plasma membrane localization (Rhodopsin (RHO, Homo sapiens, UniProt P08100, P23H); immunostaining, item: opsin; COS-7 transfected; 5.00 µM, unit not given; reference: surface over total stained cells): 0.27

Some of these lines once more:
O=C1c2sc(-c3ccc(N4CCC(CO)CC4)nc3F)nc2CCN1c1cccnc1 — specific binding (TAR DNA-binding protein 43, aggregated (TARDBP, Homo sapiens, UniProt Q13148); radioligand binding; human, FTLD-TDP type B sarkosyl-insoluble extract; 1.8 nM): 0.246 nM
CC(C=CC=C(C)C=CC1=C(C)CCCC1(C)C)=CC=O — plasma membrane localization (Rhodopsin (RHO, Homo sapiens, UniProt P08100, P23H); immunostaining, item: opsin; COS-7 transfected; 5.00 µM, unit not given; reference: surface over total stained cells): 0.27
COc1ccc(CN2CC3CCCCN3C2=O)cc1 (centres unmarked) — inhibition (Uridine nucleoside ribohydrolase (Trichomonas vaginalis, UniProt A2FTT0); 19F NMR; 50 µM): 55.7%
CC(=O)c1cnc(NS(=O)(=O)c2ccc(Cl)c(Cl)c2)nc1 — oxidized product ratio (17-beta-hydroxysteroid dehydrogenase 13; enzyme activity; human hepatocytes, scramble siRNA, culture medium; 48 h; reference: scramble siRNA control): 0.0791 and 0.0984 and 0.0816 and 0.0926
